Measured values of several laboratories.
A part holds a random share of what one study measured. Changes are numbered by the printed parent chain.

Study 1
Target: CCNB3, cyclin fold, Cln2 fusion (human)
Method: yeast growth competition, sequencing
Sample: yeast
Notes: weak parent motif
Reference: not given
Reading: higher = stronger binding
Measurement: normalised enrichment score
Starting sequence: HIRA docking peptide (human); SLSKRKLELEVET
ALSKRKLELEVET [S1A]: 0.57
SASKRKLELEVET [L2A]: -0.106
SLAKRKLELEVET [S3A]: -0.213
SLSKRALELEVET [K6A]: 0.222
SLSKKKLELEVET [R5K]: -0.175
SLSKKKLEFEVET [R5K L9F]: -0.117
SLSKAKLELEVET [R5A]: 0.0259
SLSKRKLELAVET [E10A]: 0.0716
SLSKAKAELEVET [R5A L7A]: 0.265
SLSKRKAELEVET [L7A]: 0.397

Study 2
Target: Ras GTPase-activating protein-binding protein 1, C-terminal RGG region (G3BP1, Homo sapiens, UniProt Q13283)
UniProt Q13283, sequence (whole entry, looked up): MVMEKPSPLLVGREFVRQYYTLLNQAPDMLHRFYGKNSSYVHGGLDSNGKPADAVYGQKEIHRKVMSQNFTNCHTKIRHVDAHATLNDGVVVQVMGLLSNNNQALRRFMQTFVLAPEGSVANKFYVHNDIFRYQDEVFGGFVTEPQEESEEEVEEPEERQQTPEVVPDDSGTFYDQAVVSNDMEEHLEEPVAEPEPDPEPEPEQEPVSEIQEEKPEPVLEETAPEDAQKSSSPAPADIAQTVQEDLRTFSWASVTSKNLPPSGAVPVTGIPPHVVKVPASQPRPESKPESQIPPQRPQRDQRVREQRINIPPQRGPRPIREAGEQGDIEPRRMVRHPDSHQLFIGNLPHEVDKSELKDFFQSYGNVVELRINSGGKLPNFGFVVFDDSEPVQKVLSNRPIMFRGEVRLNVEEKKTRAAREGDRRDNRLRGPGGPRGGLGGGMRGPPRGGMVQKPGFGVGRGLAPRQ
Method: RNA Bind-n-Seq
Form: RNA
Sample: in vitro
Tested at: 1 µM
Notes: whole 134-nt RNA, ends assumed
With: 150 mM KCl
Reference: input library
Reading: higher = stronger binding
Measurement: log2 enrichment
Shared flanks, not repeated: GGGAGUUCUACAGUCCGACGAUC … UGGAAUUCUCGGGUGUCAAGG
AGUCCUGUGCUACACAUCGUAUGUACCGAAUCGGGUUUUUUUGGGAAAGGGAAAGGGAAAGUAUUAUGUUACGCCGUUCGGAUCUGCACU: 0.493
AGUCCUGUGCUACACAUCGUAUGUACCGAAUCGGGGUUUUGGUUUUGGGUUUUGGGGAAAGUAUUAUGUUACGCCGUUCGGAUCUGCACU: -0.686
UGGCCCUGGUGGCAUGCGGGGAGGAAGAGGUGGCCUCAUGGAUCGUGGUGGUCCCGGUGGAAUGUCCAGAGGUGGCCGUGGUGGAGACAG: 1.88
GCAGGAAGUAAAAACAAAUGGAAAUAAAUCGGAUAGUGGCAGGGGUGGGGGUUGCUAAGGAAAGGGUGGGAUGGGAGUGGGUAAAGAGUU: 2.06
AAGUCCUGUGCUACACAUCGUAUGUACCGAAUCGGGCCCCGGCCCCGGGCCCCGGGAAAGUAUUAUGUUACGCCGUUCGGAUCUGCACUU: -2.18
GCAGGAAGUAAAAACAAAUGGAAAUGCUUCGGAUAGUGUCAGGGGUGGGGGUUGCUAAGGAAAGGGUGGGAUGGGAGUGGGUAAAGAGUU: 0.997
CGGUCAGACUUUGUGUUACAUAAAUUAACACUGUUCUCAGGUAAUGAGAGAUCCAAACACCAAGCGCUCCAGGGGCUUUGGGUUUGUCAC: -0.964
GCAGGAAGUAAAAACAAAUGGAAAUGCUUCGGAUAGUGGCAGGGGUGGGGGUUGCUAAGGAAAGGGUGGGAUGUGAGUGGGUAAAGAGUU: 2
CUCAAGUCCUGUGCUACACAUCGUAUGUACCGAAUCGGUUGGUUGGGGUUGGGAAAGUAUUAUGUUACGCCGUUCGGAUCUGCACUUCCA: -0.691
UAACUUUAGAGGAGGAUCUGAUGGAUAUGGCAGUGGACGUGGAUUUGGGGAUGGCUAUAACGGGUAUGGAGGAGGACCUGGAGGUGGCAA: -1.27
UAACUUUAGAGGAGGAUCUGAUGGAUAUGGCAGUGGGCGUGGAUUUGGGGAUGGCUAUAAUGGGUAUGGAGGAGGACCUGGAGGUGGCAA: -0.147
CCUGUGCUACACAUCGUAUGUACCGAAUCGGGGAAAAAAGGGAAAAAAGGGGAAAAAAGGAAAGUAUUAUGUUACGCCGUUCGGAUCUGC: -1.65
GCAGGAAGUAAAAACAAAUGGAAAUGCUUCGGAUAGUGGCAGGGGUGGGGGCUGCUAAGGAAAGGGUGGGAUGGGAGUGGGUAAAGAGUU: 0.775
CCUGUGCUACACAUCGUAUGUACCGAAUCGGGGAAAAAAAGGGGAAAAAGGGGAAAGGGGAAAGUAUUAUGUUACGCCGUUCGGAUCUGC: 1.32

Study 3
Target: RNA binding protein fox-1 homolog 2, RRM domain, GST-SBP tag (RBFOX2, Homo sapiens, UniProt O43251-10, residues 100-194)
Method: RNA Bind-n-Seq
Form: RNA
Sample: in vitro
Tested at: 365 nM
Notes: natural RNA segment, single round, ends assumed
Reference: no-protein control
Reading: higher = stronger binding
Measurement: RBNS enrichment (R)
Shared flanks, not repeated: GGGAGUUCUACAGUCCGACGAUC … UGGAAUUCUCGGGUGCCAA
Construct (chain): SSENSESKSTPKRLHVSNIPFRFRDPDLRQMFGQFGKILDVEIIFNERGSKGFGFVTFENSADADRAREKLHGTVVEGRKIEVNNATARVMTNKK
AUACUGUAGGCACACUUUGCACUGAUAUAUCAUGAGUGAAUAAAUGUCUUGCCUACUCACGUCUCAUCCAGGAGUGUGUCUCAUAGCUAUUGCCACAUGUCCUUAUUAUA: 0.948
AGCAUUCCUACGUUAUCCAUAUGUAUAUUUAUUUGUAUGUGUUUCACGUUAUAAAUGUUUUGUAGUGAACCCAGGGUGGGUGAGGGGGAAGCAUCUGUCUCACAUAGGCU: 0.44
GGGGAGCAGGCUCAGGCUUCCCCAGCCCCAUCCCAAGCCCUUCAGUGCCAAAAACAAAGAAAUGAAACACCGCCUCCAACCACCACAACCAUAUGGAGGGCAAUUCAGCC: 0.838
AUCUCCCAUCUGCUCACAGUAGCACCUCAGACUCCUAUGUCCCAAUGGCAGCAACAAUUUUGCCAUUUCUAUUGACUUUCACAUAGGCGCCCCCAAACACACACAACAAC: 1.55
UACACCUCCAGAAUGAUAGCUGACAUUUUUGUUUUGUUUUUCAGCAGUUGCCAUGAGCCAAACCCUAAGUUAAAUAUGUAUCCUACAUAAGAGCUAAUCUCACCACUACA: 0.678
GCAUAAAAUAUGUAACCAGGAAAAGACUGUUAACAUUACAUUUAUGCAAAUUAAAUGCCCUUAAAUUUCACCAUUUGUCUUUCAUUUUAAAGGUUAUUUGCUCCCGAUUA: 0.697
AGCUGUGUGCGUGUGAAUUUAUACUGUUUCAAAAAUUUCAAAUGCAUGGUAGCAUGUAGAAAGGUUUUUGUUACUAUGUGUGUGUGUGUGUUUUGUUUUGUUUUGUUCUG: 0.865
GAUGGUCUGUUUUGACAGAAACUGACAGGAAUCAAAACAAUCGAAUUUUGAAUUGAGUGAAGUGCAAUUUCAUUGGAUAGCUAAGUAUCUUUGUAAGAUAGAGAUUGUUG: 0.47
GUGAAGCAGGCUCCCCUGGGCCUCUGAGGGCCAGCAGUCCCAACCAUUUGCCUCUUCGUUUUGACCAAGCACAAAAGAGAUAUUCCCUAGAAGUGUCACACGGAGGCUUC: 0.781
CCUGAAAAGAAAUCCUUUAAAUUACCUAUGGAAGUGAUGUCCUCAGAUAAUCUUAAUGACUAUUUUGGCAUUUAUAAAUAGAAAUGAUUAUGGACUUUGAUCUGCCAUAC: 0.469
AGAUGAAAUGCUCUUUGCAUUGUCUGAACCCUCUCUAAUUCUAUCAUGAUAACGCUACUGUGACGCUCUCACUGGGAAGCUGGGUGGCGAGAACUUUCUGGACGUCGAUG: 0.302
AGCCCAUGGAGCAGGGAUGUCACGUCUUGAAAAGCCUAUUAGAUGUUUUACAAAUUUAAUUUUGCAGAUUAUUUUAGUCUGUCAUCCAGAAAAUGUGUCAGCAUGCAUAG: 7.12

Study 4
Target: Protein C-ets-1 (ETS1, Homo sapiens, UniProt P14921, residues 1-441, K379A, full length assumed)
Method: protein-binding microarray
Form: double-stranded DNA, one strand shown
Sample: in vitro
Tested at: not given
Notes: k-mer, scored over probes, only values ≥0.25
Reading: higher = stronger binding
Measurement: E-score
Target sequence (chain): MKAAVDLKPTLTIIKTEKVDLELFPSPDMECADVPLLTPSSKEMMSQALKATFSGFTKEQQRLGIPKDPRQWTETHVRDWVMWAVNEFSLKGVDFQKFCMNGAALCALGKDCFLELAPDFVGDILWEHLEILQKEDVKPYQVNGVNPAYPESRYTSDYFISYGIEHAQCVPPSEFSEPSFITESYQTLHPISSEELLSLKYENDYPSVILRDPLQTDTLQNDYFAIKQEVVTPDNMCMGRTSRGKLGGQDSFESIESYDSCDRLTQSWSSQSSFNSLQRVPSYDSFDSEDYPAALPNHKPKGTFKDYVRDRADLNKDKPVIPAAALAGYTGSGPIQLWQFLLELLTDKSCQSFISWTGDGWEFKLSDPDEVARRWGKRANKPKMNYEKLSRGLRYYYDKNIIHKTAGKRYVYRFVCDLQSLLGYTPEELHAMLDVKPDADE
CCCGGTAG: 0.342
AAACCCGG: 0.284
CGCGTGTC: 0.26
AATCCGGT: 0.378
AATTATAC: 0.313
CCGGCATC: 0.307
ATGTAACA: 0.294
ATATACAT: 0.333
CCCCGGCC: 0.391
AATATCCG: 0.264
CCACACAC: 0.261
ACCGGTCA: 0.376
CCGGTCGA: 0.381
CGGGAACA: 0.268
GTTCGTCA: 0.308
TATAATAA: 0.292
CCCGCCGG: 0.389
ACCCGGTG: 0.293
CCCGGTTC: 0.352
ACGGTACG: 0.307
ACCGGTCT: 0.361
AACCGGTT: 0.459
CCGTACGA: 0.265

Study 5
Target: Histone acetyltransferase KAT6A, winged helix 2, GST fusion (KAT6A, Homo sapiens, UniProt Q92794, residues 85-181)
Method: protein binding microarray
Form: double-stranded DNA, one strand shown
Sample: in vitro
Tested at: not given
Notes: 8-mer, flanks averaged, mean of 2 arrays, mostly near background
Reference: not given
Reading: higher = stronger binding
Measurement: E-score
Target sequence (chain): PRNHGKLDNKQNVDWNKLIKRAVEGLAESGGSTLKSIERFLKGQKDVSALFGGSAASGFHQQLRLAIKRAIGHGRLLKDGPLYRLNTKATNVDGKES
AATTCGGA: 0.0103
AATCATGG: -0.0215
GACGGAAC: -0.0326
GTGGGCTA: -0.0218
CCTTAACG: -0.05
GTTGTTCA: -0.12
ATCGATTG: -0.0613
CAGTCATA: -0.166
AGTAGACG: 0.0721
CCGGATAG: 0.0016
AATTTCCG: 0.0171
GATTGGAA: 0.0943
AAGTAAAC: -0.0976
AAGACCTA: 0.0374
ACTAGCGG: 0.00105
TAGATGGA: -0.0246
AACTCCCC: 0.0417
CACGGTTC: -0.231
CCCTTCCG: 0.147
AACGTATC: -0.198
CTTAGAAG: -0.137
CGGGCGCA: 0.33
GATCCGTA: -0.0116
CACGGGCA: 0.0736
TGGTACCA: 0.0931

Repeated from above (study 5):
AATTTCCG: 0.0171
CCTTAACG: -0.05
ATCGATTG: -0.0613
CTTAGAAG: -0.137
AGTAGACG: 0.0721
